Experimental data gathered from unrelated publications.
Every numbered part comes from another study and shows a few of its results, in no order. Values joined by “and” are separate records of one study, mostly repeats; a detail may differ.
Sequence of UniProt Q9NY57 (whole entry, looked up): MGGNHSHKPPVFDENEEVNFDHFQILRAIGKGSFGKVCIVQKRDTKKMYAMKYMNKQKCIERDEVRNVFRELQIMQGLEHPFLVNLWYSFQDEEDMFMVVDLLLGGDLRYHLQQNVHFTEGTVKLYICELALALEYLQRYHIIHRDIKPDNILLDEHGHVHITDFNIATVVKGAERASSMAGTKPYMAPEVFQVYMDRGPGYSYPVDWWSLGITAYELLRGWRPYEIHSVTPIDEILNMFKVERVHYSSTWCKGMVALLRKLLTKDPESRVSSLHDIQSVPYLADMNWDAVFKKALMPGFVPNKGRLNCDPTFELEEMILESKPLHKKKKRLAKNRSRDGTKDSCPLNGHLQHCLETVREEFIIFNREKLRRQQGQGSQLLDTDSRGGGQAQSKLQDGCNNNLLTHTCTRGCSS
Sequence of UniProt P10721 (whole entry, unmodified, looked up): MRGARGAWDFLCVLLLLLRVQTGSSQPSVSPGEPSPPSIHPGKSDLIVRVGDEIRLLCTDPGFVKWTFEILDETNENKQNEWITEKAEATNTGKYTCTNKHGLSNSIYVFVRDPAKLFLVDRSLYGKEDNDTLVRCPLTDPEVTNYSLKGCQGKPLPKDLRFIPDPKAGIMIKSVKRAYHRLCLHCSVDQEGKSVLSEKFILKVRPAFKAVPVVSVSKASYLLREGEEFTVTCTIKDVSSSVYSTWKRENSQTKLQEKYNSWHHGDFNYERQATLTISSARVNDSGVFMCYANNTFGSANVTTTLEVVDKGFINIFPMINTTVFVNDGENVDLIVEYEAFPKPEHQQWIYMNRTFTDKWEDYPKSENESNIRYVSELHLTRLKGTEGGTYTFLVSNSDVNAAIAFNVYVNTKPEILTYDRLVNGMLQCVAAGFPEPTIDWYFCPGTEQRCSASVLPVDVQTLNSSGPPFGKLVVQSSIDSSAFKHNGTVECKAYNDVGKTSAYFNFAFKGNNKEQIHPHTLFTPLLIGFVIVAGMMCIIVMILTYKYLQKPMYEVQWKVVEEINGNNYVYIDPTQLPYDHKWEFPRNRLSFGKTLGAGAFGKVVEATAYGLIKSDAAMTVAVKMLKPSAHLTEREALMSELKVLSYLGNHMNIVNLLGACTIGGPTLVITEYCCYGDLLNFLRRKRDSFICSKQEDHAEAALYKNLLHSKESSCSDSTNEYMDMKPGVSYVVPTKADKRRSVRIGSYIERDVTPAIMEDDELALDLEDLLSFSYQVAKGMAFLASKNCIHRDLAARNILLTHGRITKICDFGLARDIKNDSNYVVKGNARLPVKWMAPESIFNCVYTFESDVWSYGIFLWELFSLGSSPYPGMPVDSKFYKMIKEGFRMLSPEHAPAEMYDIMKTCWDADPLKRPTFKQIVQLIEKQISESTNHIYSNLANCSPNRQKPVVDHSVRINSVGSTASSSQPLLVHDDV
Sequence of UniProt Q00537 (whole entry, looked up): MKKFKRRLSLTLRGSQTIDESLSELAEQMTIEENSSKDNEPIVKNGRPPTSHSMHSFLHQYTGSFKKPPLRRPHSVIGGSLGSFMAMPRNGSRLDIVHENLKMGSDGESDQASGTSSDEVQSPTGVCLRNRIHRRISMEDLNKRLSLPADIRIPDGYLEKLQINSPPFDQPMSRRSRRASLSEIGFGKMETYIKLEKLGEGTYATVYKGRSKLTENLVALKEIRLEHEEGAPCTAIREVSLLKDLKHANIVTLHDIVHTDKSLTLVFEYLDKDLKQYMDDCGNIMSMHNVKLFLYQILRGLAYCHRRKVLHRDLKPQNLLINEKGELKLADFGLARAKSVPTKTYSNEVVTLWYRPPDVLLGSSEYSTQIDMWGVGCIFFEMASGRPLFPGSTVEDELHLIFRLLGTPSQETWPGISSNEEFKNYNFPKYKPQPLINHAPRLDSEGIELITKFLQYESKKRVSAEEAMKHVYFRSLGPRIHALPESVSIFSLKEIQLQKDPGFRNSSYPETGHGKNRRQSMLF
Sequence of UniProt P52564 (whole entry, looked up): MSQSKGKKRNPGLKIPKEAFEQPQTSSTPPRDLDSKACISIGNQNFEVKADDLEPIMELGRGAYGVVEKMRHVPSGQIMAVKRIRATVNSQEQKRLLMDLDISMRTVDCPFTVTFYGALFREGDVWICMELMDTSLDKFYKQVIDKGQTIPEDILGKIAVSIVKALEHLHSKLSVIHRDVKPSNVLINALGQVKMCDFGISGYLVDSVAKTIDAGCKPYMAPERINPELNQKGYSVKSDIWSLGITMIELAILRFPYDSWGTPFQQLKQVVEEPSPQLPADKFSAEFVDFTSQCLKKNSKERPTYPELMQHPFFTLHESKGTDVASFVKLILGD
Sequence of UniProt Q9H2G2 (whole entry, looked up): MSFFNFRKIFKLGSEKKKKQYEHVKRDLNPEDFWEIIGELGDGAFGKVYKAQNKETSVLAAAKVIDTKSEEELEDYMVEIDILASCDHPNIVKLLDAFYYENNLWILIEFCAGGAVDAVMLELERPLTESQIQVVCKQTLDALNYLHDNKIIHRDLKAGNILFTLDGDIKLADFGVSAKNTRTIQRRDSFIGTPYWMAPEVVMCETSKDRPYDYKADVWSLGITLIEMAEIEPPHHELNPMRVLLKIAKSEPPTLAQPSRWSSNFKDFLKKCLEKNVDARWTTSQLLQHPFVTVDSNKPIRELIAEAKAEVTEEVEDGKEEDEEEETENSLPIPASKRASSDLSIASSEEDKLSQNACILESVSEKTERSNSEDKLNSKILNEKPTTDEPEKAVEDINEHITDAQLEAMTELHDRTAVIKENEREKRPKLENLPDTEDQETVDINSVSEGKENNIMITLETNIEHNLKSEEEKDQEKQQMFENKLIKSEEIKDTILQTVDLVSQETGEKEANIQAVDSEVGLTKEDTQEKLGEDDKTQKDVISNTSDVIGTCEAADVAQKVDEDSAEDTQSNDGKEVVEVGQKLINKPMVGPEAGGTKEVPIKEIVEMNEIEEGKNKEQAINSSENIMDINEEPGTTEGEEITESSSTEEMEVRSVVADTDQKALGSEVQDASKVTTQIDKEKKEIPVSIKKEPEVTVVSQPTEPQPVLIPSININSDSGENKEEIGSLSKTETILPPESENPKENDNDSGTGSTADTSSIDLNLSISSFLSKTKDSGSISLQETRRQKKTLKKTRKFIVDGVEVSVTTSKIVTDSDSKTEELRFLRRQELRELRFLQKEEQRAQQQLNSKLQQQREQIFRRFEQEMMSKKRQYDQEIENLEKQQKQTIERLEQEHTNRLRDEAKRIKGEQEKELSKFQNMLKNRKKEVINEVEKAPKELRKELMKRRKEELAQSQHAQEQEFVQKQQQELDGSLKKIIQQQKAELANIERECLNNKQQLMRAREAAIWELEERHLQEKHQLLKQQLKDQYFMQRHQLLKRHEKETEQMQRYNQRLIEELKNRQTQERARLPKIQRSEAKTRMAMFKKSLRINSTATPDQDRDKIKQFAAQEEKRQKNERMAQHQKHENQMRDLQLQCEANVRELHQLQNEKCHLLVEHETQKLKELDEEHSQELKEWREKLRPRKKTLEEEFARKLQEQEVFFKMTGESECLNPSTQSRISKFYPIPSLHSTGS

Block 1
Compound: COCCOc1nc(-c2ccc(Cl)nc2)nc2c1CN(C(=O)c1ncn3ccccc13)CC2
Read-out: cell-free assay
Technique: competition with immobilised ligand
Tested at: 0.1 µM
Quantity: remaining binding
target = CDK17 (Homo sapiens, UniProt Q00537); value = 100%
target = MAP2K6 (Homo sapiens, UniProt P52564); value = 100%
target = EGFR (Homo sapiens, UniProt P00533); value = 88%
target = KIT (Homo sapiens, UniProt P10721, D816H); value = 68%
target = CDK2 (Homo sapiens, UniProt P24941); value = 82%
target = PIK3CA (Homo sapiens, UniProt P42336, E542K); value = 87%
target = SLK (Homo sapiens, UniProt Q9H2G2); value = 100%
target = CDK15 (Homo sapiens, UniProt Q96Q40); value = 100%
target = BRSK2 (Homo sapiens, UniProt Q8IWQ3); value = 93%
target = STK32B (Homo sapiens, UniProt Q9NY57); value = 100%
target = MAP2K5 (Homo sapiens, UniProt Q13163); value = 100%

Block 2
Target: Cyclin-dependent kinase 5, with p25 (CDK5, Homo sapiens, UniProt Q00535)
Sequence of UniProt Q00535 (whole entry, looked up): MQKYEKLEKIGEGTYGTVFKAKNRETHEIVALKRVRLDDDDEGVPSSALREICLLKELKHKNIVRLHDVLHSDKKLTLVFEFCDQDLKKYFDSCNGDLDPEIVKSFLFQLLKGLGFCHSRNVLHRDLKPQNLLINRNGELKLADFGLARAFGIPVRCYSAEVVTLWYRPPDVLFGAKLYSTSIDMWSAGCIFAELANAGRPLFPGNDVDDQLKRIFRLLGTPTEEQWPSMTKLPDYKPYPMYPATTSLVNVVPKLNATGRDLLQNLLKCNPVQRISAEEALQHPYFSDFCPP
Read-out: enzyme activity
Action: inhibitor
Tested at: 0.5 µM
Reference: control
Quantity: remaining activity
Structure (SMILES) = CC(C)[C@H](CO)Nc1nc(Nc2cc(N)cc(Cl)c2)c2ncn(C(C)C)c2n1; value = 3.31%
Structure (SMILES) = Cn1sc(=O)n(Cc2ccccc2)c1=O; value = 103%
Structure (SMILES) = Nc1[nH]nc2nc3ccccc3nc12; value = 85.4%
Structure (SMILES) = OCC(O)CCON=C1C(c2c(O)[nH]c3ccccc23)=Nc2ccccc21 (stereo not drawn); value = 16.4%
Structure (SMILES) = Nc1ncnc2n[nH]c(Nc3ccc(F)cc3)c12; value = 82.5%
Structure (SMILES) = O=c1c2ccccc2[nH]c(=S)n1CCN1CCC(=C(c2ccc(F)cc2)c2ccc(F)cc2)CC1; value = 93.5%
Structure (SMILES) = Cc1nc(-c2ccccc2)c(-c2ccncc2)o1; value = 97%
Structure (SMILES) = Cc1cccc(-c2[nH]c(C(C)(C)C)nc2-c2ccc3c(c2)OCO3)n1; value = 90.1%
Structure (SMILES) = C#Cc1cccc(Nc2ncnc3cc(OCCOC)c(OCCOC)cc23)c1; value = 90.5%
Structure (SMILES) = Cc1ccc(Nc2nccc(N(C)c3ccc4c(C)n(C)nc4c3)n2)cc1S(N)(=O)=O; value = 95.1%
Structure (SMILES) = COc1ccc(CNC(=O)Nc2ncc([N+](=O)[O-])s2)cc1; value = 97.7%
Structure (SMILES) = O=C(CCCc1ccc(-c2ccccc2F)cc1)Nc1ccc(O)cc1; value = 94.6%
Structure (SMILES) = CO[C@H]1C[C@@H]2CC[C@@H](C)[C@@](O)(O2)C(=O)C(=O)N2CCCC[C@H]2C(=O)O[C@H]([C@H](C)C[C@@H]2CC[C@@H](O)[C@H](OC)C2)CC(=O)[C@H](C)/C=C(\C)[C@@H](O)[C@@H](OC)C(=O)[C@H](C)C[C@H](C)/C=C/C=C/C=C/1C; value = 96.3%
Structure (SMILES) = COc1ccc(OC)c2c(=S)c3ccccc3[nH]c12; value = 85.4%
Structure (SMILES) = O=C(O)c1ccc2c3c1cccc3c(=O)n1c3ccccc3nc21; value = 80.6%

Block 3
Cell line: mouse MPNST tumor cells
Technique: high-content immunofluorescence imaging
Item: nuclear SOX9
Tested at: 10 µM
Time: 12 h
Notes: mean of 2 replicates
Reference: DMSO control
Direction: higher = more nuclear SOX9
Quantity: nuclear SOX9 intensity
Structure (SMILES) = Cc1c(NC(=O)OC[C@@H]2COCCN2)cn2ncnc(Nc3ccc4c(cnn4Cc4cccc(F)c4)c3)c12; value = 241 % of DMSO
Structure (SMILES) = NC(=O)OCC(COC(N)=O)c1ccccc1; value = 106 % of DMSO and 84.9 % of DMSO and 102 % of DMSO
Structure (SMILES) = Cc1nnc(NS(=O)(=O)c2ccc(N)cc2)s1; value = 94.5 % of DMSO
Structure (SMILES) = c1ccc(C(O[C@@H]2CCCN(CCc3ccc4c(c3)OCO4)C2)c2ccccc2)cc1; value = 110 % of DMSO
Structure (SMILES) = C[C@]1(C(=O)N(CCCC(=O)O)Cc2cccc(Cl)c2)CCN1C(=O)c1csc2ccccc12; value = 95 % of DMSO
Structure (SMILES) = CN1C(=O)CC(c2ccccc2)C1=O (stereo not drawn); value = 76 % of DMSO and 104 % of DMSO
Structure (SMILES) = COc1ccc(C(Cl)=C(c2ccc(OC)cc2)c2ccc(OC)cc2)cc1; value = 112 % of DMSO
Structure (SMILES) = CCN(CC)CCOCCOC(=O)C(CC)(CC)c1ccccc1; value = 114 % of DMSO
Structure (SMILES) = CC(C)(C)C(=O)Oc1ccc(S(=O)(=O)Nc2ccccc2C(=O)NCC(=O)O)cc1; value = 95.1 % of DMSO
Structure (SMILES) = CC(C)c1nc(CN(C)C(=O)N[C@H](C(=O)N[C@@H](Cc2ccccc2)C[C@H](O)[C@H](Cc2ccccc2)NC(=O)OCc2cncs2)C(C)C)cs1; value = 116 % of DMSO
Structure (SMILES) = Cc1nnn(-c2ccc(-c3ccc(C4(C(=O)O)CC4)cc3)cc2)c1NC(=O)O[C@H](C)c1ccccc1; value = 79.2 % of DMSO

Block 4
Structure (SMILES): COc1ccc(-c2c(Nc3ccccn3)[nH]c3c(C4=CCCCC4)c(-c4ccccc4)nn3c2=O)cc1
Technique: LC-MS/MS
Sample: plasma
Quantity: plasma concentration
item = methionine; host = human cancer patients; dose = 200 mg BID; time = 8 h; notes = median, cycle 1 day 200; value = 94000 ng/mL
item = methionine; host = human cancer patients; route = QD; dose = dose not given; time = 2 h; notes = geometric mean, cycle 1 day 50; value = 64400 ng/mL
item = S-adenosylmethionine; host = human cancer patients; dose = 200 mg BID; time = 2 h; notes = median, cycle 1 day 200; value = 11.8 ng/mL
host = human; route = oral; dose = 50 mg once daily; time = 1 h; notes = geometric mean; value = 1150 ng/mL
item = S-adenosylmethionine; host = human cancer patients; dose = 50 mg QD; time = 0 h; notes = median, cycle 1 day 50; value = 19 ng/mL
item = methionine; host = human cancer patients; dose = 200 mg BID; time = 8 h; notes = geometric mean, cycle 1 day 200; value = 68400 ng/mL
item = methionine; host = human cancer patients; dose = 200 mg BID; time = 2 h; notes = mean, cycle 1 day 200; value = 74500 ng/mL
item = methionine; host = human cancer patients; dose = 200 mg BID; time = 0 h; notes = median, cycle 1 day 200; value = 85400 ng/mL

Excerpt of the above (block 4):
item = methionine; host = human cancer patients; route = QD; dose = dose not given; time = 2 h; notes = geometric mean, cycle 1 day 50; value = 64400 ng/mL
item = S-adenosylmethionine; host = human cancer patients; dose = 200 mg BID; time = 2 h; notes = median, cycle 1 day 200; value = 11.8 ng/mL
host = human; route = oral; dose = 50 mg once daily; time = 1 h; notes = geometric mean; value = 1150 ng/mL
item = S-adenosylmethionine; host = human cancer patients; dose = 50 mg QD; time = 0 h; notes = median, cycle 1 day 50; value = 19 ng/mL
